Measurements from different studies.
Lines come from different studies, so protocols differ. Numbers after ± are the reported error.

For Cc1nc2c(=O)n(C)c(=O)nc-2n(C)n1, the kinetic solubility was over 200 µM (buffer; pH 1.2).
With O=C1NC(=O)C(=Cc2ccc(-c3cc([N+](=O)[O-])ccc3O)o2)C(=O)N1 the kinetic solubility was 85.8 µM (PBS; 24 h, pH 7.4, 21 °C, 2.0% DMSO).
For N#Cc1ccc(N2N=C3c4ccccc4CCC3C2C2CCCC2)cc1Cl (centres unmarked), the kinetic solubility was under 1 µM (PBS; 90 min).
The kinetic solubility of C=CCC(CC)(NC(=O)c1ccc(C2CC2)c(Cc2ccc(F)cc2)n1)C(=O)OCC (centres unmarked) is reported as 3.1 µg/mL (aqueous buffer with DMSO).
CNC(=O)c1ccc(C2=NN(c3ccc(C#N)c(Cl)c3)C(C)C2)cc1 (centres unmarked) has a kinetic solubility of under 1 µM (PBS; 90 min).
COc1ccc(NC(=O)Nc2ccc3c(c2)C=CCP(=O)(O)O3)cc1 has a kinetic solubility of 2260 µg/mL (HPLC-UV; 50 mM PBS; 16 h, pH 7.4, 25 °C, upper limit 2.5 mg/mL).
CCOC(=O)[C@](CC)(CCC[S+]([O-])CCOCCOCCNC(=O)OC(C)(C)C)NC(=O)c1ccc(C2CC2)c(Cc2ccc(F)cc2)n1 (some centres unmarked) gave a kinetic solubility of 5.2 µg/mL (aqueous buffer with DMSO).
For O=C(Nc1ccc2c(c1)C=CCP(=O)(O)O2)c1ccc(F)cc1, the kinetic solubility was 2140 µg/mL (HPLC-UV; 50 mM PBS; 16 h, pH 7.4, 25 °C, upper limit 2.5 mg/mL).
The kinetic solubility of N#Cc1ccc(N2N=C3c4ccc(O)cc4CCC3C2C2CCCC2)cc1Cl (centres unmarked) is reported as 8 µM (PBS; 90 min).
CCOC(=O)C(CC)(CCCSCCOCCOCCOCCNC(=O)OC(C)(C)C)NC(=O)c1ccc(C2CC2)c(Cc2ccc(F)cc2)n1 (centres unmarked) has a kinetic solubility of under 0.2 µg/mL (aqueous buffer with DMSO).
CC1=C(O)C(=O)C=C2C1=CC=C1[C@@]2(C)CC[C@@]2(C)[C@@H]3C[C@](C)(C(=O)O)CC[C@]3(C)CC[C@]12C has a kinetic solubility of 42.2 ± 0.7 µM (aqueous buffer; 90 min, pH 7.4, 25 °C, 0.1% DMSO).

For quick reference, copied from above:
CC1=C(O)C(=O)C=C2C1=CC=C1[C@@]2(C)CC[C@@]2(C)[C@@H]3C[C@](C)(C(=O)O)CC[C@]3(C)CC[C@]12C has a kinetic solubility of 42.2 ± 0.7 µM (aqueous buffer; 90 min, pH 7.4, 25 °C, 0.1% DMSO).
